Published values pooled from the literature.
Parts stem from different laboratories: compare values within a part only.

Sample 1 — method: RNA Bind-n-Seq; form: RNA; sample: in vitro; concentration: 365 nM; reference: no-protein control; direction: higher = stronger binding
Target: RNA binding protein fox-1 homolog 2, RRM domain, GST-SBP tag (RBFOX2, Homo sapiens, UniProt O43251-10, residues 100-194)
Setting: natural RNA segment, single round, ends assumed
Constant ends, left off below: GGGAGUUCUACAGUCCGACGAUC … UGGAAUUCUCGGGUGCCAA
Oligonucleotide | RBNS enrichment (R)
AGGUGAGAGUAUUUAUUUUUGGUAUGGCUGGCUCACUGCACAGACUCUGUGUUUAUGUGUGUGUGUCUGUGUGAGAGAAGAAAAAUCUGUAGAGAAGAGGCACGCUUAUG | 2.09
ACUUUCAGACUUCUACCUAUGCUCUUUAGUCCUGUAAAUUGGGUUGUAUUGAUGUCAACUCUGGUGCCUUAGAAGUUAGUAGUUUGGGAACCUAUCUGUAAAAUCAGAUG | 0.742
UGUCUUCUACCUGCAUUUUGGCAUCAGAGCCCCCCAGCCCACCCACCACAGGCAAUUACUAGCCCUAGUUGAUAGGUGAGGUGGGUGAAGAAGGCUGGAGGUGACAUGUC | 0.575
CUUUUCCUUUUUAAUCCCCUCUUAGCACUUCUGUGAGUGGAGAGGACAUUAAGUAAAAUUUGGAAUCAUAAGUUGCAAUGCAGUAAAAUGGUGCUGGGGAAGGAGCCAGU | 0.498
AUUGGACCCAGGGGGAACACCCUGAAGAACAUUGAGAAGGAAUGCAACGCCAAGAUCAUGAUUCGGGGGAAAGGAUCAGUGAAAGAAGGGAAAGUUGGGCGUAAAGAUGG | 2.89
ACUUGUUCUGGCAUUUAUAAAUAGAAAGGACUGUGAGCUGUGGGCUAUGGUCUAAUGUUCAAAGAUAUGGGUGGACAGGACUGUGGAAGAUGGACAUGAUAAACCAGUUC | 0.823
AGCCUGGCAUGCCAGGUCCUCAGACCCUAUGUUCUAUCUCAGCCAGGCCCACUCAGGAUGCCCAUGCCCAGGGCAGCAGGCUUCUGGGGUUCAGAAUUGUAGCCUCAGCC | 1.55
GGAGAAAGGACUAGGGGAAGUAUCUUUCUGGAUGCUUGUGGUCCCAGAAGGGUACUUUCUGUGUCAUACCAUGCCACUUCUUUAAGCUCUUCAGGGCAGCCAAAGCCAGC | 1.14

Sample 2 — method: protein-binding microarray; form: double-stranded DNA, one strand shown; sample: in vitro; concentration: 940 nM top; setting: 60-bp whole probe; added: salmon DNA 0.4 mg/ml; reference: random background probes; direction: higher = stronger binding; constant ends, left off below: GCCTAGCAC … GTCTTGATTCGCTTGACGCTGCTG
Target: Interferon regulatory factor 5, full length, phosphomimetic (IRF5, Homo sapiens, UniProt Q13568-2, residues 1-514, S451D/S453D/S456D/S462D)
Oligonucleotide | fitted relative affinity [z-score]
TTAGGTATCGGTCTCTGTTAGTGCTAG | 9.93
TTAGGCCTGGGGTTTCGGTTAGTGCTA | 5.33
TTAGGTCTCGGTCTCGGGTAGTGCTAG | 4.36
TCCCCTCTAGGTTCTCTGAAAGTGCTA | -0.0303
GACGGACTGCTTCTCCTGAAGTGCTAG | -0.35
TTAGATTTCGAGTTTCGATTAGTGCTA | 6.94
GACGGTTTTCTTCTCCTGACGTGCTAG | 1.48
TTAGGACTGAGTTTCGGTTAGTGCTAG | 7.53
TGTTATTAAAATTTAATGGGGTGCTAG | 0.184
TTAGGACTGGCCTATCGGTTAGTGCTA | -0.501
TTAGATTTCGGTTCCGATTAGTGCTAG | 3.21
TCATTTATACCTTAGGTACTGTGCTAG | -0.039
TTAGGTTTCGGACTGGCTTAGTGCTAG | 7.85
TTAGAACCGGGGTTTCGATTAGTGCTA | 5.61
GACCGTCTCCTTCTCCTGACGTGCTAG | 0.895
GGCGATATCAGTTTCGAGACGTGCTAG | 4.47
TTAGATATCGGGTATCGAGTAGTGCTA | 1.31

Sample 3 — method: universal PBM; form: double-stranded DNA, one strand shown; sample: in vitro; concentration: not given; direction: higher = stronger binding
Target: Sal-like protein 4, full length isoform B (SALL4, Homo sapiens, UniProt Q9UJQ4-2, residues 1-616)
Setting: 8-mer, flanks averaged, mean of replicates
Oligonucleotide | E-score
AAGTGGTC | -0.0669
ATTCGTAG | 0.0508
ACGCCCGA | -0.159
CCAGCTCA | -0.114
AACAGTCA | -0.0108
GTCACCAA | -0.0299
GGGCGTGA | -0.239
ATGTTCAG | 0.0909
AAATAACG | 0.269
GCTATCGA | -0.0727
ACGTGGGC | -0.135
AATTTCCA | 0.229
ATCACAGA | 0.0941
AGCAATTA | 0.226
TCCTATCA | 0.132
AATCTTCA | 0.219
GATACACC | 0.0909
CTGCTTCC | -0.141
ACGTCAGA | -0.0194
CATGGTTA | 0.173
ACCCGTAC | -0.133
ATACTAAT | 0.319
GCTCGCCC | -0.335
GTGGTGGA | -0.14
GTGTCATA | 0.279

Sample 4 — method: RNA Bind-n-Seq; form: RNA; sample: in vitro; concentration: 1 µM; setting: whole 134-nt RNA, ends assumed; added: 150 mM KCl; reference: input library; direction: higher = stronger binding
Target: Ras GTPase-activating protein-binding protein 1, C-terminal RGG region (G3BP1, Homo sapiens, UniProt Q13283)
Chain of UniProt Q13283 (whole entry, looked up): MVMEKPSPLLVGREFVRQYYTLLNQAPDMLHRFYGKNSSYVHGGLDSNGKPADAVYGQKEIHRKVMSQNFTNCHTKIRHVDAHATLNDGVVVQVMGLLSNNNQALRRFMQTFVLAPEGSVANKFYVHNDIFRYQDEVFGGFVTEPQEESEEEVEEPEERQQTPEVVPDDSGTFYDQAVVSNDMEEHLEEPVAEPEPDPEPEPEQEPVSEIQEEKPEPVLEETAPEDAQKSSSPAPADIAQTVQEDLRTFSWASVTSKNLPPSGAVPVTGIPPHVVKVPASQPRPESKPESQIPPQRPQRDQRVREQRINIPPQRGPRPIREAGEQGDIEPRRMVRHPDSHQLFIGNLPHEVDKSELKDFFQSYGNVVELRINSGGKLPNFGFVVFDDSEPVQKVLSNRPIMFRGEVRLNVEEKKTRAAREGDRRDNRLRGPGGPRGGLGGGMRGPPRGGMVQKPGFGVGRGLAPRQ
Constant ends, left off below: GGGAGUUCUACAGUCCGACGAUC … UGGAAUUCUCGGGUGUCAAGG
Oligonucleotide | log2 enrichment
ACCAUGCAGGUGGGCAUCUUUGGGAAGUGGGAAAAGGGGGGGAUAGGGAGGGGGGUAACACUUUGGGAACAGGUGGUCCCAGGUCGUUUC | -0.665
AGUCCUGUGCUACACAUCGUAUGUACCGAAUCGGAAAGGAAAAAAAGGAAAAAAAGGAAAGUAUUAUGUUACGCCGUUCGGAUCUGCACU | -1.99
UCAAGUCCUGUGCUACACAUCGUAUGUACCGAAUCGGGGCCGGCCGGGGCCGGGAAAGUAUUAUGUUACGCCGUUCGGAUCUGCACUUCC | -1.54
UCCUCAAGUCCUGUGCUACACAUCGUAUGUACCGAAUCGGUGGGUGGGGUGGAAAGUAUUAUGUUACGCCGUUCGGAUCUGCACUUCCAG | 0.127
AGUCCUGUGCUACACAUCGUAUGUACCGAAUCAAACCCCCAAAUUUUUAAACCCAAAAAAGUAUUAUGUUACGCCGUUCGGAUCUGCACU | -0.943
ACCAUGCAGGUGGGCAUCUUUGGGAAGUGGGGCAAGGGGGGGAUAGGGAGGGGGGUAACACUUUGGGAACAGGUGGUCCCAAAACGUUUC | -0.847
UCCUCAAGUCCUGUGCUACACAUCGUAUGUACCGAAUCGGCGGGCGGCGGGAAAGUAUUAUGUUACGCCGUUCGGAUCUGCACUUCCAGC | -0.709
GUCCUGUGCUACACAUCGUAUGUACCGAAUCGGGGUUUGGGGUGGGGUUUUUUUGGGGAAAGUAUUAUGUUACGCCGUUCGGAUCUGCAC | 1.75
CAAGUCCUGUGCUACACAUCGUAUGUACCGAAUCGGGAAAGGGGAAAGGAAAGGGAAAGUAUUAUGUUACGCCGUUCGGAUCUGCACUUC | -1.13

Some of these lines once more (sample 3):
Oligonucleotide | E-score
AATTTCCA | 0.229
ATCACAGA | 0.0941
AGCAATTA | 0.226
TCCTATCA | 0.132
AATCTTCA | 0.219
GATACACC | 0.0909
CTGCTTCC | -0.141
ACGTCAGA | -0.0194
